Published values from different studies.
Each line is one published result; not all experiments were run side by side. Numbers after ± are the reported error.

SMILES	test	system	conditions	how to read	AUC(0-t)
CN1CCC(COc2cnc(-c3cccc(Cn4nc(-c5cccc(C#N)c5)ccc4=O)c3)nc2)CC1		human	500 mg, day 1, alone, geometric mean		24100 ng·h/mL
C#C[C@]1(CO)O[C@@H](n2cnc3c(N)nc(F)nc32)C[C@@H]1O		human, plasma	oral, 400 mg, single dose, geometric mean		44.7 µM·h
CNC(=O)n1ccc2cc(Oc3ccnc(NC(=O)c4ccc(C5CCN(CCO)CC5)cc4)c3)c(OCCOC)cc21		healthy human, plasma	oral, 35 mg, geometric mean, added: rabeprazole 20 mg		115 ng·h/mL
CO[C@H]1C[C@@H]2CC[C@@H](C)[C@@](O)(O2)C(=O)C(=O)N2CCCC[C@H]2C(=O)O[C@H]([C@H](C)C[C@@H]2CC[C@@H](OC(=O)NCCOCCOCCOCCOCCOCCOCCOCCOCCC(=O)N3CCc4cc(Cn5nc(-c6ccc7oc(N)nc7c6)c6c(N)ncnc65)ccc4C3)[C@H](OC)C2)C[C@@H](O)[C@H](C)/C=C(\C)[C@@H](O)[C@@H](OC)C(=O)[C@H](C)C[C@H](C)/C=C/C=C/C=C/1C		human, plasma	intravenous, 8 mg, cycle 1 day 15, arithmetic mean		828 ng·h/mL
CN[C@@H](C)C(=O)N[C@H]1CN(S(=O)(=O)c2cccc(S(=O)(=O)N3CC[C@H]4CC[C@@H](C(=O)NC(c5ccccc5)c5ccccc5)N4C(=O)[C@@H](NC(=O)[C@H](C)NC)C3)c2)CC[C@H]2CC[C@@H](C(=O)NC(c3ccccc3)c3ccccc3)N2C1=O	LC-MS/MS	human, advanced solid tumours, plasma	intravenous, 0.6 mg weekly, day 15		15.7 ± 4.6 ng·h/mL
O=C(O)CCC(=O)O.[2H]C([2H])([2H])Oc1cc(C)c2[nH]ccc2c1CN1CC[C@@H](C2CC2)C[C@H]1c1ccc(C(=O)O)cc1		healthy humans, fed	oral, 200 mg, single dose, high-fat meal		121000 ng·h/mL
Cl.[2H]C([2H])([2H])CC(=O)c1cnc(NC(=O)C2CC2)cc1Nc1cccc(-c2ncn(C([2H])([2H])[2H])n2)c1OC	geometric mean	human	oral, 100 mg single dose, fasted, liquid		11100 ng·h/mL
CC(=O)N1CCC(Nc2cc(C(=O)NC[C@H](O)CN3CCc4ccccc4C3)ncn2)CC1		human	oral, 400 mg, geometric mean		6670 ng·h/mL
Cc1[nH]c(/C=C2\C(=O)Nc3ccc(F)cc32)c(C)c1C(=O)N[C@H]1CCN(C(=O)N(C)C)C1		human patients, plasma	oral, 100 mg single dose, added: everolimus 5 mg		4300 ± 2170 ng·h/mL
CO[C@@H]1[C@H](OC(=O)N2CC(CCN3CCOCC3)C2)CC[C@]2(CO2)[C@H]1[C@@]1(C)O[C@@H]1CC=C(C)C		humans, plasma	subcutaneous, 0.2 mg twice weekly, fifth dose		0.26 ± 0.14 ng·h/mL
C[C@H]1CN(C(=O)CC#N)[C@]12CCN(c1ncnc3[nH]ccc13)C2		healthy human, plasma	oral, 6 mg single, geometric mean		193 ng·h/mL
CCN1CCN(Cc2ccc(Nc3ncc(F)c(-c4cc(F)c5nc6n(c5c4)[C@H](C)CCC6)n3)nc2)CC1		human, plasma	50 mg single dose, mean		1420 ng·h/mL
COc1cc(-c2cnc3cc(OCCN4CCOCC4)ccn23)cc2c1C(=O)N(CC(F)(F)F)CC2	LC-MS	human, plasma	oral, 350 mg, day 5, added: sulfasalazine 1000 mg		4800 ng·h/mL
NC[C@@]1(CC(=O)O)[C@@H]2CC[C@H]3C[C@@H]2[C@@H]1C3		human, severely renal impairment, plasma	dose not given, geometric least squares mean		6500 ng·h/mL
C[C@H]1[C@H](OC(=O)CCC(=O)O)O[C@@H]2O[C@@]3(C)CC[C@H]4[C@H](C)CC[C@@H]1[C@@]24OO3		human, both sexes, plasma	oral, dose not given, fixed-dose combination		169 ng·h/mL
CO[C@H]1CC[C@H](N2C(=O)CNc3ncc(-c4ccc(C(C)(C)O)nc4)nc32)CC1		human, plasma	oral, 60 mg, day -1, geometric mean		2080 ng·h/mL
CN[C@@H](C)C(=O)N[C@H]1CN(S(=O)(=O)c2cccc(S(=O)(=O)N3CC[C@H]4CC[C@@H](C(=O)NC(c5ccccc5)c5ccccc5)N4C(=O)[C@@H](NC(=O)[C@H](C)NC)C3)c2)CC[C@H]2CC[C@@H](C(=O)NC(c3ccccc3)c3ccccc3)N2C1=O	LC-MS/MS, noncompartmental	human, plasma	20 mg, cycle 1 day 1		502 ± 299 ng·h/mL
Cc1cc(C)c(CNC(=O)c2cc(Cl)c3c(c2C)O[C@@](C)([C@H]2CC[C@H](N(C)C)CC2)O3)c(=O)[nH]1	geometric LS mean	healthy male humans, plasma	oral, dose not given, added: itraconazole		3110 ng·h/mL
N#Cc1cccc(-c2ccc3ncc(-c4cc(F)cc(F)c4)c(N4CCC(N)CC4)c3c2)c1O		human, plasma	oral, 20 mg single dose, geometric mean		2650 ng·h/mL
C=CC(=O)N1C[C@H](Nc2ncnc3[nH]ccc23)CC[C@@H]1C		human, plasma	oral, 50 mg single dose, alone without rifampicin		448 ng·h/mL
C=CC(=O)N(C)CCOc1c(N)ncnc1-c1cc(F)cc(NC(=O)c2ccc(C3CC3)cc2F)c1C		human, whole blood	oral, 30 mg, single ascending dose		75.1 ng·h/mL
CNC(=O)c1c(C)oc2cc(Oc3ncnc4cc(OC)c(OC)cc34)ccc12		healthy human subjects, plasma	oral, 5 mg, arithmetic mean, added: dabigatran etexilate 150 mg		5200 ng·h/mL
C=CCn1c(=O)c2cnc(Nc3ccc(N4CCN(C)CC4)cc3)nc2n1-c1cccc(C(C)(C)O)n1		human	oral, 300 mg once daily, monotherapy lead-in, -5 days	geometric mean	8.68 µM·h
CC(=O)O[C@H]1C(=O)[C@@]2(C)[C@H]([C@H](OC(=O)c3ccccc3)[C@]3(O)C[C@H](OC(=O)[C@H](O)[C@@H](NC(=O)c4ccccc4)c4ccccc4)C(C)=C1C3(C)C)[C@]1(OC(C)=O)CO[C@@H]1C[C@@H]2O	noncompartmental analysis	human cancer patients, plasma	intravenous infusion, 80 mg/m^2, cycle 1 day 1, added: daily oral co-medication		4140 ng·h/mL
CN(CC#N)C(=O)C[C@H](Nc1nc2ccccc2[nH]1)c1cccc(C(F)(F)F)c1		human	intravenous infusion, 4 mg/kg, 1 mg/mL formulation		19900 ± 7800 ng·h/mL
NC1(C(=O)N[C@@H](CCO)c2ccc(Cl)cc2)CCN(c2nc[nH]c3nccc2-3)CC1		human patients, plasma	dose not given, cohort 160/480, cycle 0, geometric mean		3920 ng·h/mL
CC(=O)c1ccc([C@H]2C[C@@]3(C)[C@@H](CC[C@@]3(O)C(F)(F)C(F)(F)F)[C@@H]3CCC4=CC(=O)CCC4=C32)cc1		human, pooled serum	oral, 200 mg single dose, 0 to 24 h		230 ng·h/mL
[H]/N=C(/N)c1ccc(NCc2nc3cc(C(=O)N(CCC(=O)O)c4ccccn4)ccc3n2C)cc1		healthy humans, plasma	oral, 75 mg, alone, geometric mean		431 ng·h/mL
CCO		human, breath	0.5 g/kg, added: placebo		146 ± 22.2 h·mg/100 mL
COc1nnc2ccc(N3CCC(c4ccc(OCCN5CCN(C)C(=O)[C@H]5C)cc4)CC3)nn12		human, plasma	oral, 2 mg once daily, multiple dose, monotherapy		0.0743 µM·h

For quick reference, copied from above:
SMILES	test	system	conditions	how to read	AUC(0-t)
C=CCn1c(=O)c2cnc(Nc3ccc(N4CCN(C)CC4)cc3)nc2n1-c1cccc(C(C)(C)O)n1		human	oral, 300 mg once daily, monotherapy lead-in, -5 days	geometric mean	8.68 µM·h
CC(=O)O[C@H]1C(=O)[C@@]2(C)[C@H]([C@H](OC(=O)c3ccccc3)[C@]3(O)C[C@H](OC(=O)[C@H](O)[C@@H](NC(=O)c4ccccc4)c4ccccc4)C(C)=C1C3(C)C)[C@]1(OC(C)=O)CO[C@@H]1C[C@@H]2O	noncompartmental analysis	human cancer patients, plasma	intravenous infusion, 80 mg/m^2, cycle 1 day 1, added: daily oral co-medication		4140 ng·h/mL
CN(CC#N)C(=O)C[C@H](Nc1nc2ccccc2[nH]1)c1cccc(C(F)(F)F)c1		human	intravenous infusion, 4 mg/kg, 1 mg/mL formulation		19900 ± 7800 ng·h/mL
NC1(C(=O)N[C@@H](CCO)c2ccc(Cl)cc2)CCN(c2nc[nH]c3nccc2-3)CC1		human patients, plasma	dose not given, cohort 160/480, cycle 0, geometric mean		3920 ng·h/mL
